Experimental data collected from several papers.
Compare with care: the assays were run in different laboratories.
Organism: Acinetobacter baumannii

| SMILES | assay | test system | setting | MIC |
| --- | --- | --- | --- | --- |
| CN(C)c1ccc2nc3ccc(=[N+](C)C)cc-3sc2c1 | – | ATCC BAA-1797, resistant | 18 h, 37 °C, dark | > 128 µM |
| CC(C)(CN)CNCc1nc2ccccc2n1CCOc1ccccc1 | – | ATCC 17961 | – | 32 µg/mL |
| CN[C@@H]1[C@@H](O[C@H]2O[C@H](CO)[C@@H](N)[C@H](O)[C@H]2O)OC2C[C@@H](N)[C@@H](O[C@H]3[C@H](O)[C@@H](O)[C@H](N)C[C@@H]3N)OC2[C@@H]1O (stereo partly drawn) | broth microdilution | NCTC 13424 | 20 h, ambient air | 8 µg/mL |
| O=[N+]([O-])c1ccc(O)c2ncccc12 | – | 17978 | – | 9.38 µM |
| CC1(C)S[C@@H]2[C@H](NC(=O)[C@H](N)c3ccccc3)C(=O)N2[C@H]1C(=O)O | broth microdilution | BNCC 194496 | – | 16 µg/mL |
| CC[C@H]1OC(=O)[C@H](C)C(=O)[C@H](C)[C@@H](O[C@@H]2O[C@H](C)C[C@H](N(C)C)[C@H]2O)[C@](C)(OC)C[C@@H](C)C(=O)[C@H](C)[C@H]2N(CCCCn3cnc(-c4cccnc4)c3)C(=O)O[C@]12C | broth microdilution | ATCC 17978 | – | 20 µM |
| CN(C)c1ccc(O)c2c1C[C@H]1C[C@H]3[C@H](N(C)C)C(O)=C(C(N)=O)C(=O)[C@@]3(O)C(O)=C1C2=O | broth microdilution | NCTC 13424 | 20 h, 5% CO2 | 4 µg/mL |
| C=C[C@]1(C)C[C@@H](OC(=O)CS[C@@H]2C[C@H]3CC[C@@H](C2)N3C)[C@]2(C)[C@H](C)CC[C@]3(CCC(=O)[C@H]32)[C@@H](C)[C@@H]1O | broth microdilution | ATCC 17978 | – | 160 µM |
| NC[C@H]1O[C@H](O[C@H]2[C@H](O)[C@@H](O[C@H]3O[C@H](CO)[C@@H](O)[C@H](N)[C@H]3O)[C@H](N)C[C@@H]2N)[C@H](N)C[C@@H]1O | broth microdilution | NCTC 13424 | 20 h, 5% CO2 | > 512 µg/mL |
| Oc1c(Br)cc(Br)c2nc3ccccc3nc12 | – | 17978 | – | > 100 µM |
| Cc1c(CN(C)C(=O)/C=C/c2cnc3c(c2)CCC(=O)N3)oc2ccccc12 | broth microdilution | AR-0312 | – | > 32 µg/mL |
| CC(=O)O[C@H]1C[C@@]2(C)[C@@H](C[C@@H](O)[C@H]3[C@@]4(C)CC[C@@H](O)[C@@H](C)[C@@H]4CC[C@@]32C)/C1=C(\CCC=C(C)C)C(=O)O | broth microdilution | ATCC 17978 | – | 160 µM |
| CC1(C)S[C@@H]2[C@H](NC(=O)[C@H](N)c3ccc(O)cc3)C(=O)N2[C@H]1C(=O)O | broth microdilution | BNCC 194496 | – | 8 µg/mL |
| CC1(C)S[C@@H]2[C@H](NC(=O)[C@H](N)c3ccccc3)C(=O)N2[C@H]1C(=O)O | broth microdilution | ATCC 19606, susceptible | 18 h, 37 °C, LED light 10 min, 1.57 mW | > 128 µM |
| c1ccc(OCCn2c(CNC34CC5CC(CC(C5)C3)C4)nc3ccccc32)cc1 | – | ATCC 17961 | – | > 128 µg/mL |
| CNC(C)C1CCC(N)C(OC2C(N)CC(N)C(OC3OCC(C)(O)C(NC)C3O)C2O)O1 (stereo not drawn) | broth microdilution | NCTC 13424 | 20 h, ambient air | > 512 µg/mL |
| CO[C@@H]1[C@@H](OC(N)=O)[C@@H](O)[C@H](Oc2ccc3c(O)c(NC(=O)c4ccc(O)c(CC=C(C)C)c4)c(=O)oc3c2C)OC1(C)C | broth microdilution | ATCC 17978 | – | 20 µM |
| Cc1cc(Nc2ccc(S(F)(F)(F)(F)F)cc2)n2ccnc2n1 | – | Kelly lung isolate | – | 1.09 µg/mL |

| SMILES | assay | test system | setting | MIC |
| --- | --- | --- | --- | --- |
| CC(C)(O/N=C(\C(=O)N[C@@H]1C(=O)N2C(C(=O)[O-])=C(C[n+]3ccccc3)CS[C@H]12)c1csc(N)n1)C(=O)O | broth microdilution | A1 clinical isolate | 20 h | 8 µg/mL |
| CNC(C)C1CCC(N)C(OC2C(N)CC(N)C(OC3OCC(C)(O)C(NC)C3O)C2O)O1 (stereo not drawn) | broth microdilution | BNCC 194496 | – | 4 µg/mL |
| Cc1c(CN(C)C(=O)/C=C/c2cnc3c(c2)CC(NC(=O)OC(C)(C)C)C(=O)N3)oc2ccccc12 (stereo not drawn) | broth microdilution | AR-0312 | – | > 32 µg/mL |
| C[C@@H](O)[C@H]1C(=O)N2C(C(=O)O)=C(S[C@@H]3CN[C@H](C(=O)N(C)C)C3)[C@H](C)[C@H]12 | – | clinical isolate 1A3 | – | 96 µg/mL |
| CC[C@H](C)CCCCC(=O)N[C@@H](CCN)C(=O)N[C@H](C(=O)N[C@@H](CCN)C(=O)N[C@H]1CCNC(=O)[C@H]([C@@H](C)O)NC(=O)[C@H](CCN)NC(=O)[C@H](CCN)NC(=O)[C@H](CC(C)C)NC(=O)[C@@H](Cc2ccccc2)NC(=O)[C@H](CCN)NC1=O)[C@@H](C)O | – | ATCC 19606, CAMHB | 20 h, 37 °C | 1 µg/mL |
| CC(=O)NC[C@H]1CN(c2ccc(N3CCOCC3)c(F)c2)C(=O)O1 | broth microdilution | ATCC 17978 | – | 640 µM |
| C[C@H](N)C(=O)N[C@H](C(=O)N[C@@H](CS)C(=O)N[C@@H](Cc1ccc(O)cc1)C(=O)N[C@@H](CS)C(=O)N[C@@H](CCCNC(=N)N)C(=O)N[C@H](C(=O)NCC(=O)N[C@@H](CCCNC(=N)N)C(=O)N[C@@H](CS)C(=O)N[C@@H](C)C(=O)N[C@H](C(=O)N[C@@H](CCCNC(=N)N)C(=O)O)[C@@H](C)O)[C@@H](C)O)[C@@H](C)O | broth turbidity | – | – | > 100 µM |
| C[C@@H]1O[C@@H]1P(=O)(O)O | broth microdilution | ATCC 17978 | – | 80 µM |
| CC1(C)S[C@@H]2[C@H](NC(=O)[C@H](N)c3ccccc3)C(=O)N2[C@H]1C(=O)O | broth microdilution | – | 24 h, 37 °C, clinical isolate | > 400 µM |
| CC[C@H](C)CCCCC(=O)N[C@@H](CCN)C(=O)N[C@H](C(=O)N[C@@H](CCN)C(=O)N[C@H]1CCNC(=O)[C@H]([C@@H](C)O)NC(=O)[C@H](CCN)NC(=O)[C@H](CCN)NC(=O)[C@H](CC(C)C)NC(=O)[C@@H](CC(C)C)NC(=O)[C@H](CCN)NC1=O)[C@@H](C)O | broth microdilution | BAA-747, cation-adjusted Mueller-Hinton broth | 18 to 20 h, 37 °C, 0.002% polysorbate 80 | 0.125 µg/mL |
| NC[C@H]1O[C@H](O[C@H]2[C@H](O)[C@@H](O[C@H]3O[C@H](CO)[C@@H](O)[C@H](N)[C@H]3O)[C@H](N)C[C@@H]2N)[C@H](O)[C@@H](O)[C@@H]1O | broth microdilution | clinical isolate | – | > 200 µM |
| CN(C)[C@@H]1C(O)=C(C(N)=O)C(=O)[C@@]2(O)C(O)=C3C(=O)c4c(O)cccc4[C@@](C)(O)[C@H]3C[C@@H]12 | broth microdilution | NCTC 13424 | 20 h, 5% CO2 | 256 µg/mL |
| CC1(C)S[C@@H]2[C@H](/N=C/N3CCCCCC3)C(=O)N2[C@H]1C(=O)O | broth microdilution | ATCC 17978 | – | 2.5 µM |
| CC(C)C[C@@H]1NC(=O)[C@@H](Cc2ccccc2)NC(=O)[C@H](CCN)NC(=O)[C@@H](NC(=O)[C@H](CCN)NC(=O)[C@@H](N)[C@@H](C)O)CCNC(=O)[C@H]([C@@H](C)O)NC(=O)[C@H](CCN)NC(=O)[C@H](CCN)NC1=O | – | ATCC 17978 | compound alone | > 200 µg/mL |
| NCC[C@H](O)C(=O)N[C@@H]1C[C@H](N)[C@@H](O[C@H]2O[C@H](CN)[C@@H](O)[C@H](O)[C@H]2O)[C@H](O)[C@H]1O[C@H]1O[C@H](CO)[C@@H](O)[C@H](N)[C@H]1O | broth microdilution | NCTC 13424 | 20 h, ambient air | > 512 µg/mL |
| COc1ccc2ccc(O)c(/C=N/[C@H]3CCCC[C@H]3/N=C/c3ccc(-c4ccccc4)cc3O)c2c1 | bacterial growth, broth microdilution | carbapenem-resistant clinical isolate | – | > 40 µM |
| CO/N=C(\C(=O)N[C@@H]1C(=O)N2C(C(=O)O)=C(COC(C)=O)CS[C@H]12)c1csc(N)n1 | broth microdilution | NCTC 13424 | 20 h, ambient air | 256 µg/mL |
| CCN1CCN(C(=O)N[C@@H](C(=O)N[C@@H]2C(=O)N3[C@@H]2SC(C)(C)[C@@H]3C(=O)O)c2ccccc2)C(=O)C1=O | broth microdilution | – | 24 h, 37 °C, clinical isolate | > 400 µM |

A few entries again:
| SMILES | assay | test system | setting | MIC |
| --- | --- | --- | --- | --- |
| CO/N=C(\C(=O)N[C@@H]1C(=O)N2C(C(=O)O)=C(COC(C)=O)CS[C@H]12)c1csc(N)n1 | broth microdilution | NCTC 13424 | 20 h, ambient air | 256 µg/mL |
| Cc1c(CN(C)C(=O)/C=C/c2cnc3c(c2)CC(NC(=O)OC(C)(C)C)C(=O)N3)oc2ccccc12 (stereo not drawn) | broth microdilution | AR-0312 | – | > 32 µg/mL |
| CC(C)C[C@@H]1NC(=O)[C@@H](Cc2ccccc2)NC(=O)[C@H](CCN)NC(=O)[C@@H](NC(=O)[C@H](CCN)NC(=O)[C@@H](N)[C@@H](C)O)CCNC(=O)[C@H]([C@@H](C)O)NC(=O)[C@H](CCN)NC(=O)[C@H](CCN)NC1=O | – | ATCC 17978 | compound alone | > 200 µg/mL |
